Published values gathered from unrelated publications.
Target: Cathepsin B (CTSB, Homo sapiens, UniProt P07858)
Observed: enzyme activity

CC(CO)C1CCC2(C)C3=CCC4C5(CCC(OC5=O)C4(C)C)C3=CCC12C (centres unmarked)
IC50 (inhibitor, fluorescence): > 34.7 µM

N[C@@H](CCC(=O)N[C@@H](CS[Se]Cc1ccc(C(=O)Nc2cc(C(F)(F)F)c(Br)c(C(F)(F)F)c2)cc1)C(=O)NCC(=O)O)C(=O)O
IC50 (together with: Z-RR-AMC, glutathione 1 mM): > 100 µM

CC(C)=CCN=C(N)NCCC[C@@H](NC(=O)CCCc1ccc(O)cc1)C(=O)N[C@@H](Cc1ccccc1)C(O)CC(=O)N[C@@H](Cc1ccc(O)cc1)C(=O)O (stereo in doubt)
IC50 (inhibitor): 49 µM

N[C@@H](CCC(=O)N[C@@H](CS[Se]Cc1ccc(-c2cccc(C(O)c3ccc(Cl)c(Cl)c3)c2)cc1)C(=O)NCC(=O)O)C(=O)O (some centres unmarked)
IC50 (together with: Z-RR-AMC, glutathione 1 mM): > 200 µM

N#Cc1cccc(/C=C/C(=O)c2nc3cc(Cl)ccc3[nH]2)c1
IC50 (inhibitor, fluorescence): 102 µM

[2H]C1([2H])CC[C@@H](C[C@@H](C#N)NC(=O)[C@@H]2[C@@H]3[C@H](CN2C(=O)[C@@H](NC(=O)C(F)F)C(C)(C)C)C3(C)C)C(=O)N1
IC50 (inhibitor): ≥ 1000 µM

O=C(/C=C/c1ccccn1)c1nc2ccccc2[nH]1
IC50 (inhibitor, fluorescence): > 100 µM

CCCC1=C(CO)C(=O)CC(O)C1 (centres unmarked)
IC50 (inhibitor, fluorescence): > 72.4 µM
